Published values pooled from the literature.
Each numbered part is a random draw from the data of one study; scales do not carry over between parts. Positions count from the first letter of the parent shown.

Block 1
Target: Interferon regulatory factor 5, full length, phosphomimetic (IRF5, Homo sapiens, UniProt Q13568-2, residues 1-514, S451D/S453D/S456D/S462D)
Method: protein-binding microarray
Form: double-stranded DNA, one strand shown
Sample: in vitro
Concentration: 940 nM top
Setting: 60-bp whole probe
Added: salmon DNA 0.4 mg/ml
Baseline: random background probes
Direction: higher = stronger binding
Constant ends, left off below: GCCTAGCAC … GTCTTGATTCGCTTGACGCTGCTG
Sequence	fitted relative affinity [z-score]
TCAACTTTCACTTCTCCACTGTGCTAG	3.61
GTAAAATTATTCTGTATATTGTGCTAG	0.262
GCAAGAACAGCTGGTGGGCAGTGCTAG	-0.602
TTAGATATCAGTTTCGATTTGTGCTAG	7.88
GACAGTCTCCTTTTCCTGACGTGCTAG	1.67
TTAGATCGCAGACTGGATTAGTGCTAG	-0.581
TAAGGACTGCTTTTCCTTTAGTGCTAG	-0.127
AACGATATCGGGACTGGAGACGTGCTA	-0.181
GACGGTTTCGGCATCGGGACGTGCTAG	7.54
TCATATATATTGTTAGTACTGTGCTAG	0.307
GACGATATCTGTATCGAGACGTGCTAG	0.607
TCAGAAATCGGTGATCAGACTGTGCTA	-0.44
GACGGTATCGACTTTTGGGACGTGCTA	3.52
TCATATATACTATATGCAACTGTGCTA	0.0458
TTACGACTGGGACTGGGTTAGTGCTAG	-0.0763
ATAGGACTGGGGACTGGGTTAGTGCTA	-0.298

Block 2
Target: CCNE1, cyclin fold, Cln2 fusion (human)
Method: yeast growth competition, sequencing
Sample: yeast
Setting: weak parent motif
Baseline: not given
Direction: higher = stronger binding
Parent: ORC1 docking peptide (human); PRARKRLELGNLG
Change	normalised enrichment score
L7A	0.537
R2K	0.265
L9C	1.19
R2H	0.157
R4S	-0.188
R2Y	-0.158
P1Q	0.908
G13M	1.03
E8N	0.218
P1I	0.142
N11V	1.14

Block 3
Target: Sal-like protein 4, full length isoform B (SALL4, Homo sapiens, UniProt Q9UJQ4-2, residues 1-616)
Method: universal PBM
Form: double-stranded DNA, one strand shown
Sample: in vitro
Concentration: not given
Setting: 8-mer, flanks averaged, mean of replicates
Direction: higher = stronger binding
Residues (chain): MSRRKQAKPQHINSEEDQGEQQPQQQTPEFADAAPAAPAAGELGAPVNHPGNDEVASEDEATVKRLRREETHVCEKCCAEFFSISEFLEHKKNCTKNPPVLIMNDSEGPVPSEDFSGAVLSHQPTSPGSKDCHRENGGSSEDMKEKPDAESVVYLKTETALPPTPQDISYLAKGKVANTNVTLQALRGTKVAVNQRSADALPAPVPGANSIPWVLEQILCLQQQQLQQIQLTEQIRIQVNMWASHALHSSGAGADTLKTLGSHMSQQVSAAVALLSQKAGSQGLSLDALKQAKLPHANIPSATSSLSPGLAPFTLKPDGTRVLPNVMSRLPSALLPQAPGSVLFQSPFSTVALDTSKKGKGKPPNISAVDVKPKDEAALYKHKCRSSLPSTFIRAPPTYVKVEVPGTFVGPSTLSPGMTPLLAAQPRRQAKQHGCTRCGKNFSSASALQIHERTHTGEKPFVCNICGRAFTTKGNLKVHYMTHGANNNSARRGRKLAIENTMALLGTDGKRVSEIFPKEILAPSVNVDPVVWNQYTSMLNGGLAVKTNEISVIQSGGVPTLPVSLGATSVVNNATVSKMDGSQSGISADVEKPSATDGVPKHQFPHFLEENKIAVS
Sequence	E-score
AATCAACA	0.216
TGTACAAA	0.289
GCCACGGA	-0.219
ATATTAAA	0.433
CGAGCGTC	-0.246
AGCCGCAT	-0.15
CAGCTCAG	-0.31
TCCTGTAA	0.224
AAATAGAG	0.193
CCCGTCGC	-0.307
GCCTTTGA	-0.0476
ATCTTCAG	0.0625
CCGACGCG	-0.37
AACAATCC	0.161
AAGGGGGC	-0.219
CCAGCCGA	-0.312

Mixed results
Molecule	target	test	system	conditions	how to read	endpoint	result
PhoQ, residues 284 288 289 292 302 303 SIHMAM	PhoP, residues 12 14 15 18 19 AQCLL (Escherichia coli, UniProt P23836)	Sort-seq, refers to: YFP reporter	E. coli	PhoQ-PhoP variant library, added: 10 µM Mg2+	baseline: high Mg2+ state, higher = stronger signaling	fold induction	5.53

A few entries again (block 1):
Sequence	fitted relative affinity [z-score]
TTAGATATCAGTTTCGATTTGTGCTAG	7.88
TCAACTTTCACTTCTCCACTGTGCTAG	3.61
GACAGTCTCCTTTTCCTGACGTGCTAG	1.67
